Assay results collected from several papers.
Protocols differ between the studies behind these lines. Several values in a cell are separate wells, animals, samples, runs or records. ± marks the error that the study gave.
AVPR2: Vasopressin V2 receptor (AVPR2, Homo sapiens, UniProt P30518)
UniProt P30518, sequence (whole entry, looked up): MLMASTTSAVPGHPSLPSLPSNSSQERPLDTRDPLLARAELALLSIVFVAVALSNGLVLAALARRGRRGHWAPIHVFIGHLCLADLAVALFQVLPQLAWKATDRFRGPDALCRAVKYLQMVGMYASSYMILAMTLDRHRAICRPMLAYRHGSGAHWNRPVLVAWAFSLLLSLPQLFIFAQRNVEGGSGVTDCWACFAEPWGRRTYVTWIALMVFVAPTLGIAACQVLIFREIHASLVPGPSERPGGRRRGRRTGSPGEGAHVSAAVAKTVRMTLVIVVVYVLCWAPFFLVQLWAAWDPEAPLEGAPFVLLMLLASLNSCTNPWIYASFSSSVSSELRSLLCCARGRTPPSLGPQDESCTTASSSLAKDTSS
UniProt Q62351, sequence (whole entry, looked up): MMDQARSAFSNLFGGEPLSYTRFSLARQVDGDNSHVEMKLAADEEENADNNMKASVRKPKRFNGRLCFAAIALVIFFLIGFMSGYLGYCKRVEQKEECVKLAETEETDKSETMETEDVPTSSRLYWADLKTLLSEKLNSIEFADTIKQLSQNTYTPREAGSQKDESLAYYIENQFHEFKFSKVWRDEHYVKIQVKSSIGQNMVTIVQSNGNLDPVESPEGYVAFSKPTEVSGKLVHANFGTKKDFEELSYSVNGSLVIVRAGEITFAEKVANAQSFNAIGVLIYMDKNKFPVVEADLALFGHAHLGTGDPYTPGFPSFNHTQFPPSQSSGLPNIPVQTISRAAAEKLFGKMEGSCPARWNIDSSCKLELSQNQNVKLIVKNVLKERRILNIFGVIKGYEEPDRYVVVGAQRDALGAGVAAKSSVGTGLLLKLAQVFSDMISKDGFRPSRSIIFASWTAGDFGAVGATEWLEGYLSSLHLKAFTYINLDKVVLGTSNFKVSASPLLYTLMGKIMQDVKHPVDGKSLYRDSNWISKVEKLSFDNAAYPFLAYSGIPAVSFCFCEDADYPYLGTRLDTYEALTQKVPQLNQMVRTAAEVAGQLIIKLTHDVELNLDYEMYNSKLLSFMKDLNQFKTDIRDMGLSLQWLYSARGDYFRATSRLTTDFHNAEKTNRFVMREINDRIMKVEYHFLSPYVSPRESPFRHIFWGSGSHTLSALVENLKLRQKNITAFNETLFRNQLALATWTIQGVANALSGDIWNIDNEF
UniProt Q9UGM1, sequence (whole entry, looked up): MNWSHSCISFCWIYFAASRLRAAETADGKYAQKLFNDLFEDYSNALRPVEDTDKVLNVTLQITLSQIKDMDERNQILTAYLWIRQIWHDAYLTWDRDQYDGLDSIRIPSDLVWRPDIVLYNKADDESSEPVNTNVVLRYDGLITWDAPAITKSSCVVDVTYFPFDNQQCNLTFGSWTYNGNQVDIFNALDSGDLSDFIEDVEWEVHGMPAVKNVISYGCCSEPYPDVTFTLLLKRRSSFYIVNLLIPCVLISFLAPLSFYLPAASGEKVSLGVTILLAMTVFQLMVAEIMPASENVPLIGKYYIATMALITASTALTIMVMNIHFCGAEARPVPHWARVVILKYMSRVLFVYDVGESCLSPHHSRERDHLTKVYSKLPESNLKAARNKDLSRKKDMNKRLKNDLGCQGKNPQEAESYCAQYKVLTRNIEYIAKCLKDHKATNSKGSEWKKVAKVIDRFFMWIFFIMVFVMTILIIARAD
UniProt P00940, sequence (whole entry, unmodified, looked up): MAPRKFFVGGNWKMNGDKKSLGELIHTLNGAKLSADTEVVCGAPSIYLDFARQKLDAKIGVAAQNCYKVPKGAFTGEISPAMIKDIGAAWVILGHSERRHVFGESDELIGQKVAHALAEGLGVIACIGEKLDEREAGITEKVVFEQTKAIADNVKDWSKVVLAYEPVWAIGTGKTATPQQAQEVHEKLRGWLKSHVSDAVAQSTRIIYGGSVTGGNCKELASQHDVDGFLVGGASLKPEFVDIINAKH
UniProt P49888, sequence (whole entry, looked up): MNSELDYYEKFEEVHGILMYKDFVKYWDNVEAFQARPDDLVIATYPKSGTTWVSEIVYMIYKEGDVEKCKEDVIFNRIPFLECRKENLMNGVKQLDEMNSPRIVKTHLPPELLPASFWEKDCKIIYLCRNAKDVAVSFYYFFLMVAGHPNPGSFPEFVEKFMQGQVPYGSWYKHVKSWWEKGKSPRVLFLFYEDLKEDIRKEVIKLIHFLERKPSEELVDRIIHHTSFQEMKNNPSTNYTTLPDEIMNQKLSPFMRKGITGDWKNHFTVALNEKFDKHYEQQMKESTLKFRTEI
UniProt P05067, sequence (whole entry, looked up): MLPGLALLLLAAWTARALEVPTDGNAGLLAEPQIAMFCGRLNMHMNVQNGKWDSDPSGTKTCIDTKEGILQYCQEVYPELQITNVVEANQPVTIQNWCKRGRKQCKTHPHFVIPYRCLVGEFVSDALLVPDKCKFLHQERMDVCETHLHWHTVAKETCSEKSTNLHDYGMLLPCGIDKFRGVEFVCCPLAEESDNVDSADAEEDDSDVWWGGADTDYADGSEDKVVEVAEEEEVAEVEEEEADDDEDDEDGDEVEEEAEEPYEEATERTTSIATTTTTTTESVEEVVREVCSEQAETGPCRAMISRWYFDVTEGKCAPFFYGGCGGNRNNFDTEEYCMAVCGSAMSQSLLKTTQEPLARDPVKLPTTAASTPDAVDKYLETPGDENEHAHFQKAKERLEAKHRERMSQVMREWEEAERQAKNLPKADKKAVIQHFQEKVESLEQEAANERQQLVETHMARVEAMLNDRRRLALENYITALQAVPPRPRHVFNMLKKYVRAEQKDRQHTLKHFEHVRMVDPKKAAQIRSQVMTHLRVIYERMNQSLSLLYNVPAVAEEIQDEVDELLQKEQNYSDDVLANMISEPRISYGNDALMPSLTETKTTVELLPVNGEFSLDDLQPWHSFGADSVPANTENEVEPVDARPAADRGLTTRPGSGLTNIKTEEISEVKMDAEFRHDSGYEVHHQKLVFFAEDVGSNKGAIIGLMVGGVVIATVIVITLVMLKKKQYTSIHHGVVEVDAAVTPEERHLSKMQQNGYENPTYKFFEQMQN
UniProt P08510, sequence (whole entry, unmodified, looked up): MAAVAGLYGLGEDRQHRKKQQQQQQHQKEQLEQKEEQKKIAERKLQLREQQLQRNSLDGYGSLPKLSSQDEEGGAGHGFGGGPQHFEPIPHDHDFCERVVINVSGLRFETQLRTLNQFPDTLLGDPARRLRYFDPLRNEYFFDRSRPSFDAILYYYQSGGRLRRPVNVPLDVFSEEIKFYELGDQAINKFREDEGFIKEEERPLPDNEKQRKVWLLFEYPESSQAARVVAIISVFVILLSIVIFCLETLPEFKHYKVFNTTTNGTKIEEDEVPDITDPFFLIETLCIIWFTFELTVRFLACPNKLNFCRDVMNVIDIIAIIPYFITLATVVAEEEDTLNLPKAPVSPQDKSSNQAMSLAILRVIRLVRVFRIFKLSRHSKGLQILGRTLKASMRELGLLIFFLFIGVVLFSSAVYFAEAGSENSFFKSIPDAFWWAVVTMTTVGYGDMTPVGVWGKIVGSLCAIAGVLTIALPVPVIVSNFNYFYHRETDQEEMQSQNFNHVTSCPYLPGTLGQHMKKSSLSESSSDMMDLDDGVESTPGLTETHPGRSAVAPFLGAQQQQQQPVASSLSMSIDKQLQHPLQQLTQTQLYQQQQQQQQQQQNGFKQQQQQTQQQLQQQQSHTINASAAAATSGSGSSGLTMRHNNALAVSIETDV
UniProt Q7Z601, sequence (whole entry, looked up): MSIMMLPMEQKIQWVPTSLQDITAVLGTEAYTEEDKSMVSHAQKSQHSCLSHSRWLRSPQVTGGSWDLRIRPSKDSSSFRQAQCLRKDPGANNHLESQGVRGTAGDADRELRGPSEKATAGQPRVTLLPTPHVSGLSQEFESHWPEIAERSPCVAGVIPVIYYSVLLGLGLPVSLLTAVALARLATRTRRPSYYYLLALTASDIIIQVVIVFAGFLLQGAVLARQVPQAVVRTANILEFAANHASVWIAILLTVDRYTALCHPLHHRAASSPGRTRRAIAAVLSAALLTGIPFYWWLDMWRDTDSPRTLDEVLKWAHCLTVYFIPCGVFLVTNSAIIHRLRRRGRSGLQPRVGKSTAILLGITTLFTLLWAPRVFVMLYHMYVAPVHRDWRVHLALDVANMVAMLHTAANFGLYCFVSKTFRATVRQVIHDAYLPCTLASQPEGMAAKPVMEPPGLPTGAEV
UniProt P00330, sequence (whole entry, unmodified, looked up): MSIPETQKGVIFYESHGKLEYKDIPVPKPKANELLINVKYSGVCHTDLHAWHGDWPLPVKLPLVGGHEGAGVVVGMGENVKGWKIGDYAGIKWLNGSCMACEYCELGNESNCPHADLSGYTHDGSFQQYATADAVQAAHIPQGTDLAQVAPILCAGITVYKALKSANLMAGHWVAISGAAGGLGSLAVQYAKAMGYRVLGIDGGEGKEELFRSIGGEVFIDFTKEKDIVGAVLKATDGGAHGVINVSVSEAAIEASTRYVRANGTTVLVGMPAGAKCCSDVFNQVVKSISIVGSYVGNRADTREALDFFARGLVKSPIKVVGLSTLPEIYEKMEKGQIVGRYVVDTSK
UniProt C7FF04, sequence (whole entry, looked up): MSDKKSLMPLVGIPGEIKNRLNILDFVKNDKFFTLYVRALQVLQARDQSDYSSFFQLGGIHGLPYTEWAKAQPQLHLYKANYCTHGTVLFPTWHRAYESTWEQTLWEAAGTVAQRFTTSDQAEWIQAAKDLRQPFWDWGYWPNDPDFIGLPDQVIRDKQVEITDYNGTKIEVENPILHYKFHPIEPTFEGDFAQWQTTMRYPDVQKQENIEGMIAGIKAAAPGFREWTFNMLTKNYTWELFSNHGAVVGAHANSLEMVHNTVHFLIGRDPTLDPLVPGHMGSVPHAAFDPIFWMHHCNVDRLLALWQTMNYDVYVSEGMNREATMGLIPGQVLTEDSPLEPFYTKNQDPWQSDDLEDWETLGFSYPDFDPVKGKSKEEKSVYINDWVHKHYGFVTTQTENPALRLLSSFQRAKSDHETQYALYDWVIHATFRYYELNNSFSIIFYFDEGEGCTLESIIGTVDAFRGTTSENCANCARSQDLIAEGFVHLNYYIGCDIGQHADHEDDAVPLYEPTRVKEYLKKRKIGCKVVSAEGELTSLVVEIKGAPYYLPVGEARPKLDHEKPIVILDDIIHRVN

The selectivity ratio of `Cn1nccc1[C@]1(CNC(=O)c2ccc(F)c(F)c2-c2ccc(C(F)(F)F)cc2)NC(=O)NC1=O` is reported as greater than 16700 (Cathepsin B (CTSB, Homo sapiens, UniProt P07858); inhibitor; relative to: CTSB over target).
The Km increase of `CC=O` is reported as 16 fold (ADH1 (Saccharomyces cerevisiae, UniProt P00330, H49Q); enzyme activity, substrate; pH 7.3; relative to: wild type).
`CC[C@@H](C)[C@@H](NC(=O)[C@@H](Cc1ccc(O)cc1)NC(=O)[C@H]1CCCN1C(=O)[C@@H](CCCNC(=N)N)NC(=O)[C@H](N)Cc1c[nH]cn1)C(=O)N[C@H](C)C(=O)N[C@H](Cc1c[nH]cn1)C(=O)N[C@H](CCCNC(=N)N)C(=O)N[C@H](CCCCNC(=O)c1cccc(S(=O)(=O)F)c1)C(=O)N[C@H](Cc1ccc(O)cc1)C(=O)N[C@H](CO)C(=O)N[C@H](Cc1ccccc1)C(N)=O` has a surface expression of 0.912 and 0.914 (Transferrin receptor protein 1 (Tfrc, Mus musculus, UniProt Q62351); flow cytometry; MC-38; 24 h, unit not given; relative to: 0 h).
`O=C(CF)N[C@H]1[C@H]([C@H](O)[C@H](O)CO)O[C@@](OC[C@H]2O[C@@H](Oc3ccc([N+](=O)[O-])cc3)[C@H](O)[C@@H](O)[C@H]2O)(C(=O)O)C[C@@H]1O` has a Vmax of 0.00076 ± 5e-05 mM/s (Sialidase-2 (Homo sapiens, UniProt Q9Y3R4); substrate; 10 min, pH 5.0, 37 °C).
`[2H]c1c([2H])c([C@]2([2H])CCCN2C(=O)C(C)(C)Oc2ccc3cn[nH]c3c2)c([2H])c([2H])c1C([2H])([2H])[2H]` gave a remaining binding of 90% (Rhodopsin kinase GRK7 (GRK7, Homo sapiens, UniProt Q8WTQ7); KINOMEscan; 1 µM; relative to: DMSO control).
`CN1CCN(c2cc(-c3ccncc3)c(-c3ccc4ccccc4c3)nn2)CC1` gave an activation of -0.4% (AVPR2; agonist, FLIPR; 12.5 µM).
The inhibition of `COc1cc(Nc2ncc(F)c(Nc3ccc4c(n3)NC(=O)C(C)(C)O4)n2)cc(OC)c1OC` is reported as 24% (Serine/threonine-protein kinase pim-1 (PIM1, Homo sapiens, UniProt P11309); KINOMEscan; 10 µM).
`CC[N+]1(C)CCN(c2ccccc2)CC1` — result for “response relative to ACh”: 70% (Neuronal acetylcholine receptor subunit alpha-9 (CHRNA9, Homo sapiens, UniProt Q9UGM1); peak current, agonist, two-electrode voltage clamp; Xenopus oocytes coexpressing rapsyn; 30 µM; relative to: ACh 60 µM).
`CCCCCCCC(=O)CC(=O)N[C@H]1CCOC1=O` has an Emax of 86.6% (Regulatory protein SdiA (sdiA, Escherichia coli, UniProt P07026)).
`Oc1cc(Br)cc(Br)c1Oc1ccc(Br)cc1Br` gave an apparent Vmax of 8.65 nmol/min/mg protein (Sulfotransferase 1E1 (SULT1E1, Homo sapiens, UniProt P49888); sulfonation, substrate).
`CCOC(=O)CC(SP(=O)(OC)OC)C(=O)OCC` (stereo not drawn) has a remaining activity of 101% (uncharacterized protein (Anopheles coluzzii, UniProt A0A6E8VQK1); enzyme activity, inhibitor; Sf9 cell homogenate; 0.004587 µM, 0.1667 h, together with: α-naphthyl acetate substrate; relative to: no inhibitor).
For `O=C(c1ccc(Cl)cc1)N1CCN2C(=O)N(OC(=O)N3CCOc4ccccc43)C(=O)C2C1` (stereo not drawn), “median protein ratio” read 1.12 (sn-1-specific diacylglycerol lipase ABHD11 (ABHD11, Homo sapiens, UniProt Q8NFV4); MS-based ABPP; SW-620 conditioned medium; 10 µM, 1 h, 37 °C; relative to: compound over DMSO, lower = more inhibition).
The remaining activity of `O=C(NNC(=O)c1csnn1)c1ccc(Cl)cc1` is reported as 41.4% (Acetyl-CoA synthetase (Cryptococcus neoformans, UniProt J9VFT1); 3.13 µM).
`O=C(O)COP(=O)(O)O` gave a Ki ratio of 370 (Triosephosphate isomerase (TPI1, Gallus gallus, UniProt P00940, G210A/S211G/Y208T); enzyme activity, competitive inhibitor, GPDH/NADH-coupled; pH 7.0, 25 °C, ionic strength 0.1 NaCl, together with: glyceraldehyde 3-phosphate substrate; relative to: mutant over wild type).
For `COc1cc(N)c(Cl)cc1C(=O)NC1CN2CCC1CC2` (stereo not drawn), “log2 fold change” read 0.191 (Probable G-protein coupled receptor 142 (Homo sapiens, UniProt Q7Z601); β-arrestin recruitment, TANGO luminescence, item: GPR142; concentration not given; relative to: basal luminescence).
`CSCC[C@H](N)C(=O)N[C@@H](C)C(=O)N[C@@H](C)C(=O)N[C@H](C(=O)N[C@@H](C)C(=O)NCC(=O)N[C@@H](CC(C)C)C(=O)N[C@@H](Cc1ccc(O)cc1)C(=O)NCC(=O)N[C@@H](CC(C)C)C(=O)NCC(=O)N[C@@H](CCC(=O)O)C(=O)N[C@@H](CC(=O)O)C(=O)N[C@@H](CCCNC(=N)N)C(=O)N[C@@H](CCC(N)=O)C(=O)N[C@@H](Cc1c[nH]cn1)C(=O)N[C@@H](CCCNC(=N)N)C(=O)N[C@@H](CCCCN)C(=O)N[C@@H](CCCCN)C(=O)N[C@@H](CCC(N)=O)C(N)=O)C(C)C` gave a Hill coefficient of 0.88 (Sh, DEL6-46 (Drosophila melanogaster, UniProt P08510); ion current, blocker, inside-out patch clamp; +30 mV).
`CC[C@H](CO)Nc1nc(NCc2ccccc2)c2ncn(C(C)C)c2n1` has a binding score of 0.75 (Cyclin-dependent kinase 7 (CDK7, Homo sapiens, UniProt P50613); KINOMEscan competition binding; 10 µM, primary screen; direction not given).
`CN(C(=O)n1cnc(-c2ccc[n+]([O-])c2)c1)C1CCCCC1` has an inhibition of 2% (Melanocortin receptor 3 (MC3R, Homo sapiens, UniProt P41968); radioligand binding; 50 µM).
`CNS(=O)(=O)C(F)(F)C(F)(F)C(F)(F)C(F)(F)C(F)(F)C(F)(F)C(F)(F)C(F)(F)F` — result for “binding fold change”: 74.9 (Fatty acid-binding protein, liver (FABP1, Homo sapiens, UniProt P07148); affinity selection mass spectrometry; 100 nM, together with: pooled compounds; relative to: other proteins).
`O=C(Nc1cnccc1Cl)N1CCN(Cc2ccc3c(c2)OC(F)(F)O3)CC1` gave an inhibition of -1% (AVPR2; binding; 50 µM, together with: [3H][Arg8]vasopressin).
`CC1(C)C=C(CNc2ccc3c(c2)Cc2cc(Br)ccc2-3)C(C)(C)N1[O]` — result for “T2 relaxation time”: 28 ms (Amyloid-beta precursor protein, amyloid-beta (APP, Homo sapiens, UniProt P05067); MRI, MSME; 5xFAD mice, brain; iv, 3 mg/kg, 24 h).
`CCCCC/C=C\C/C=C\C/C=C\C/C=C\CCCC(=O)O` has a formation rate of 1.1 ± 0.21 µmol/min/nmol BM3 (Bifunctional cytochrome P450/NADPH--P450 reductase (cyp102A1, Bacillus megaterium, UniProt P14779); substrate, item: 14,15-EET; 30 s, together with: NADPH 0.5 mM).
For `O=c1cc(CSc2ccc(N=Cc3ccccc3)cc2)occ1O`, the Stern-Volmer constant was 92500 L/mol (PPO3 (Agaricus bisporus, UniProt C7FF04); fluorescence quenching).
`C[C@H]1CN(c2n[nH]c3nc(N[C@H]4CC[C@H](NS(=O)(=O)CCC(F)(F)F)CC4)ncc23)CCO1` gave a remaining binding of 1.13 (AP-2 complex subunit sigma (Homo sapiens, UniProt P53680); Kinobeads competition, item: AP2S1; 0.8 µM, unit not given; relative to: vehicle).
`COc1ccc(N2C(=O)N(c3c(C)cccc3Cl)Cc3cnc(Nc4ccc(C5CCN(C)CC5)cc4OC)nc32)nc1` gave an inhibition of 2% (Death-associated protein kinase 1 (DAPK1, Homo sapiens, UniProt P53355); kinase activity; 0.5 µM).
`Nc1nc2c(ncn2[C@@H]2O[C@@H]3COP(=O)(O)O[C@H]4[C@@H](O)[C@H](n5cnc6c(=O)[nH]c(N)nc65)O[C@@H]4COP(=O)(O)O[C@H]3[C@H]2O)c(=O)[nH]1` gave a -TΔS of -12.5 kcal/mol (Cell cycle histidine kinase CckA, cytoplasmic region (Caulobacter vibrioides, UniProt Q9X688); binding, ITC; 12 °C, together with: ADP 5 mM).
With `CCN(CC)CCCC[C@H](NC(=O)[C@H](CC(C)C)NC(=O)[C@H](C)NC(=O)[C@H](Cc1ccccc1)NC(=O)c1ccc(C(C)(C)C)cc1)C(=O)N[C@@H](CO)C(=O)OC` the specific binding was 96.3% (Adenosine receptor A1 (ADORA1, Homo sapiens, UniProt P30542); antagonist, radioligand binding; 10 µM; relative to: control binding).
